Experimental data gathered from unrelated publications.
Compare with care: the assays were run in different laboratories. Values after ≈ are worked out from the molar mass of the structure shown.
Organism: Candida albicans

SMILES = CCCCCCCCCC1CC2CCC3CC(CCCCCCCCC)NC(=N1)N23 (stereo not drawn); test = fungal growth; test system = ATCC 90028; measurement = IC50; result = 3.02 µM
SMILES = COc1ccc(/N=N/C(=S)N2CCN(C)CC2)cc1; test = microbial growth; test system = ATCC10231; conditions = 24 h; measurement = IC50; result = > 50 µM
SMILES = N=C(N)NCCC[C@@H]1NC(=O)[C@H](CCCNC(=N)N)NC(=O)[C@H](CCCNC(=N)N)NC(=O)[C@H](Cc2ccc3ccccc3c2)NC(=O)[C@H](Cc2c[nH]c3ccccc23)NC(=O)[C@H](Cc2ccc3ccccc3c2)NC(=O)[C@H](CCCNC(=N)N)NC1=O; test = XTT; test system = ATCC 60193; conditions = MIC; measurement = biofilm mass reduction; result = 31 to 39%
SMILES = C[C@@H](c1ccn(Cc2c(F)cc(Cl)cc2F)n1)[C@](O)(Cn1cnnn1)c1ccc(F)cc1F; test = growth, broth microdilution; test system = SC5314; conditions = 24 h, 30 °C, ≥50% inhibition; measurement = MIC; result = < 0.008 µg/mL
SMILES = CCCCCC1CC2CCCC3CC(C)N=C(N1)N32 (stereo not drawn); test = fungal growth; test system = ATCC 90028; measurement = IC50; result = 16.8 µM
SMILES = CC(=NNC(=N)N)c1nnn(-c2ccc(C#CC3(O)CCCCC3)cc2)c1C; test system = ATCC 10231; measurement = MBC; result = 31.2 µg/mL (≈ 82.4 µM)
SMILES = CC(C)=CCc1cc([C@@H]2CC(=O)c3c(O)cc(O)c(CC=C(C)C)c3O2)cc(CC=C(C)C)c1O; test system = ATCC 10231; conditions = concentration not given; measurement = antibacterial activity; result = inactive
SMILES = CCN(CC)CCn1nc(C23CC4CC(CC(C4)C2)C3)n(C)c1=S; test system = IFO 0583; conditions = 200 µg/disc, 48 h, 37 °C; measurement = inhibition zone diameter; result = < 10 mm
SMILES = C[C@@H](c1ccn(Cc2c(F)cccc2F)n1)[C@](O)(Cn1cnnn1)c1ccc(F)cc1F; test = growth, broth microdilution; test system = SC5314; conditions = 24 h, 30 °C, ≥50% inhibition; measurement = MIC; result = < 0.008 µg/mL
SMILES = COc1ccc2c3c(oc2c1CC=C(C)C)-c1cc(CC=C(C)C)c(O)cc1OC3; test system = ATCC 10231; conditions = concentration not given; measurement = antibacterial activity; result = inactive
SMILES = COc1ccc(-c2csc(N/N=C(\C)c3ccc4c(c3)sc3nc(=O)c(C#N)cn34)n2)cc1; test = microbial growth, broth dilution; measurement = MIC; result = < 192 µg/mL
SMILES = CCCn1ccc([C@H](C)[C@](O)(Cn2cnnn2)c2ccc(F)cc2F)n1; test = growth, broth microdilution; test system = SC5314; conditions = 24 h, 30 °C, ≥50% inhibition; measurement = MIC; result = 0.0156 µg/mL (≈ 0.043 µM)
SMILES = Cc1cccc([N+](=O)[O-])c1NC(=O)CSc1nc2ccccc2c(=O)n1-c1ccc(S(N)(=O)=O)cc1; test = microbial growth, well diffusion; test system = ATCC10231; conditions = 500 µg/mL, 72 h; measurement = inhibition zone; result = 22 mm
SMILES = C[C@@H](c1ccn(Cc2c(F)ccc(F)c2F)n1)[C@](O)(Cn1cnnn1)c1ccc(F)cc1F; test = growth, broth microdilution; test system = SC5314; conditions = 24 h, 30 °C, ≥50% inhibition; measurement = MIC; result = < 0.008 µg/mL
SMILES = CN(C)CCn1nc(C23CC4CC(CC(C4)C2)C3)n(C)c1=S; test system = IFO 0583; conditions = 200 µg/disc, 48 h, 37 °C; measurement = inhibition zone diameter; result = < 10 mm
SMILES = Cc1cc([N+](=O)[O-])ccc1NC(=O)CSc1nc2ccccc2c(=O)n1-c1ccc(S(N)(=O)=O)cc1; test = microbial growth, well diffusion; test system = ATCC10231; conditions = 500 µg/mL, 72 h; measurement = inhibition zone; result = 27 mm
SMILES = C[C@@H](c1ccn(Cc2cccc(F)c2F)n1)[C@](O)(Cn1cnnn1)c1ccc(F)cc1F; test = growth, broth microdilution; test system = SC5314; conditions = 24 h, 30 °C, ≥50% inhibition; measurement = MIC; result = < 0.008 µg/mL
SMILES = COc1ccc(/N=N/C(=S)N2CCOCC2)cc1; test = microbial growth; test system = ATCC10231; conditions = 24 h; measurement = IC50; result = > 50 µM
SMILES = Cn1c(SCCN2CCCC2)nnc1C12CC3CC(CC(C3)C1)C2; test system = IFO 0583; conditions = 200 µg/disc, 48 h, 37 °C; measurement = inhibition zone diameter; result = < 10 mm
SMILES = CC(C)=CCc1c(O)ccc2c1O[C@H]1c3cc4c(cc3OC[C@@H]21)OC(C)(C)C=C4; test system = ATCC 10231; conditions = concentration not given; measurement = antibacterial activity; result = inactive
SMILES = CC(=O)[O-].O.O.O.O.[Mn+2].[O-]c1ccc(Br)cc1C=NCCN1CCOCC1; conditions = 20 µL of 100 µM per disc; measurement = inhibition zone diameter; result = 16 mm
SMILES = S=c1n(CN2CCN(Cc3ccccc3)CC2)nc(C23CC4CC(CC(C4)C2)C3)n1-c1ccccc1; test system = IFO 0583; conditions = 200 µg/disc, 48 h, 37 °C; measurement = inhibition zone diameter; result = < 10 mm
SMILES = CCc1ccc(NC(=O)CSc2nc3ccccc3c(=O)n2-c2ccc(S(N)(=O)=O)cc2)cc1; test = microbial growth, well diffusion; test system = ATCC10231; conditions = 500 µg/mL, 72 h; measurement = inhibition zone; result = 18 mm
SMILES = O=c1c2ccccc2sn1-c1cc(Br)cc(Br)c1; test = growth, broth dilution; test system = ATCC MYA-2310 (susceptible); conditions = MIC-0; measurement = MIC; result = 6.25 µg/mL (≈ 16.2 µM)
SMILES = COc1ccccc1N1CCN(Cn2nc(C34CC5CC(CC(C5)C3)C4)n(-c3ccccc3)c2=S)CC1; test system = IFO 0583; conditions = 200 µg/disc, 48 h, 37 °C; measurement = inhibition zone diameter; result = < 10 mm
SMILES = C[C@@H](c1ccn(Cc2ccc(OC(F)(F)F)cc2)n1)[C@](O)(Cn1cnnn1)c1ccc(F)cc1F; test = growth, broth microdilution; test system = SC5314; conditions = 24 h, 30 °C, ≥50% inhibition; measurement = MIC; result = < 0.008 µg/mL
SMILES = CCN(CC)CCSc1nnc(C23CC4CC(CC(C4)C2)C3)n1C; test system = IFO 0583; conditions = 200 µg/disc, 48 h, 37 °C; measurement = inhibition zone diameter; result = < 10 mm
SMILES = CC(C)=CCc1cc([C@@H]2CC(=O)c3ccc(O)c(CC=C(C)C)c3O2)c(O)c(CC=C(C)C)c1O; test system = ATCC 10231; conditions = concentration not given; measurement = antibacterial activity; result = inactive
SMILES = Cn1c(C23CC4CC(CC(C4)C2)C3)nn(CCN2CCCCC2)c1=S; test system = IFO 0583; conditions = 200 µg/disc, 48 h, 37 °C; measurement = inhibition zone diameter; result = < 10 mm
SMILES = C[C@@H](c1ccn(Cc2cc(F)cc(F)c2)n1)[C@](O)(Cn1cnnn1)c1ccc(F)cc1F; test = growth, broth microdilution; test system = SC5314; conditions = 24 h, 30 °C, ≥50% inhibition; measurement = MIC; result = < 0.008 µg/mL
SMILES = CCOc1ccc(NC(=O)CSc2nc3ccccc3c(=O)n2-c2ccc(S(N)(=O)=O)cc2)cc1; test = microbial growth, well diffusion; test system = ATCC10231; conditions = 500 µg/mL, 72 h; measurement = inhibition zone; result = 26 mm
SMILES = COC(=O)c1cnc(-c2cnccn2)cc1C(=O)OC.COC(=O)c1cnc(-c2cnccn2)cc1C(=O)OC.F[P-](F)(F)(F)(F)F.[Ag+]; test = crystal violet staining; test system = ATCC 10231; conditions = MIC; measurement = biofilm formation; result = 51%
SMILES = C[C@@H](c1ccn(Cc2cccc(C(F)(F)F)c2)n1)[C@](O)(Cn1cnnn1)c1ccc(F)cc1F; test = growth, broth microdilution; test system = SC5314; conditions = 24 h, 30 °C, ≥50% inhibition; measurement = MIC; result = < 0.008 µg/mL
SMILES = CCc1ccccc1NC(=O)CSc1nc2ccccc2c(=O)n1-c1ccc(S(N)(=O)=O)cc1; test = microbial growth, well diffusion; test system = ATCC10231; conditions = 500 µg/mL, 72 h; measurement = inhibition zone; result = 21 mm
SMILES = Cn1c(C23CC4CC(CC(C4)C2)C3)nn(CCN2CCCC2)c1=S; test system = IFO 0583; conditions = 200 µg/disc, 48 h, 37 °C; measurement = inhibition zone diameter; result = < 10 mm
SMILES = CC1COC(=O)N1/N=C/c1ccc([N+](=O)[O-])o1 (stereo not drawn); test = microbial growth, broth dilution; test system = ATCC14053; conditions = 18 h; measurement = MIC; result = > 50 µg/mL

A few entries again:
SMILES = COc1ccc(-c2csc(N/N=C(\C)c3ccc4c(c3)sc3nc(=O)c(C#N)cn34)n2)cc1; test = microbial growth, broth dilution; measurement = MIC; result = < 192 µg/mL
SMILES = COc1ccc(/N=N/C(=S)N2CCOCC2)cc1; test = microbial growth; test system = ATCC10231; conditions = 24 h; measurement = IC50; result = > 50 µM
SMILES = Cn1c(SCCN2CCCC2)nnc1C12CC3CC(CC(C3)C1)C2; test system = IFO 0583; conditions = 200 µg/disc, 48 h, 37 °C; measurement = inhibition zone diameter; result = < 10 mm
SMILES = Cc1cc([N+](=O)[O-])ccc1NC(=O)CSc1nc2ccccc2c(=O)n1-c1ccc(S(N)(=O)=O)cc1; test = microbial growth, well diffusion; test system = ATCC10231; conditions = 500 µg/mL, 72 h; measurement = inhibition zone; result = 27 mm
SMILES = C[C@@H](c1ccn(Cc2c(F)ccc(F)c2F)n1)[C@](O)(Cn1cnnn1)c1ccc(F)cc1F; test = growth, broth microdilution; test system = SC5314; conditions = 24 h, 30 °C, ≥50% inhibition; measurement = MIC; result = < 0.008 µg/mL
